Experimental data collected from several papers.
Numbered parts are unrelated; each lists some results of a single study. Substitutions count along the parent as printed.

Sample 1
Target: Sal-like protein 4, full length isoform A (SALL4, Homo sapiens, UniProt Q9UJQ4, residues 1-1053)
Chain of UniProt Q9UJQ4 (whole entry, looked up): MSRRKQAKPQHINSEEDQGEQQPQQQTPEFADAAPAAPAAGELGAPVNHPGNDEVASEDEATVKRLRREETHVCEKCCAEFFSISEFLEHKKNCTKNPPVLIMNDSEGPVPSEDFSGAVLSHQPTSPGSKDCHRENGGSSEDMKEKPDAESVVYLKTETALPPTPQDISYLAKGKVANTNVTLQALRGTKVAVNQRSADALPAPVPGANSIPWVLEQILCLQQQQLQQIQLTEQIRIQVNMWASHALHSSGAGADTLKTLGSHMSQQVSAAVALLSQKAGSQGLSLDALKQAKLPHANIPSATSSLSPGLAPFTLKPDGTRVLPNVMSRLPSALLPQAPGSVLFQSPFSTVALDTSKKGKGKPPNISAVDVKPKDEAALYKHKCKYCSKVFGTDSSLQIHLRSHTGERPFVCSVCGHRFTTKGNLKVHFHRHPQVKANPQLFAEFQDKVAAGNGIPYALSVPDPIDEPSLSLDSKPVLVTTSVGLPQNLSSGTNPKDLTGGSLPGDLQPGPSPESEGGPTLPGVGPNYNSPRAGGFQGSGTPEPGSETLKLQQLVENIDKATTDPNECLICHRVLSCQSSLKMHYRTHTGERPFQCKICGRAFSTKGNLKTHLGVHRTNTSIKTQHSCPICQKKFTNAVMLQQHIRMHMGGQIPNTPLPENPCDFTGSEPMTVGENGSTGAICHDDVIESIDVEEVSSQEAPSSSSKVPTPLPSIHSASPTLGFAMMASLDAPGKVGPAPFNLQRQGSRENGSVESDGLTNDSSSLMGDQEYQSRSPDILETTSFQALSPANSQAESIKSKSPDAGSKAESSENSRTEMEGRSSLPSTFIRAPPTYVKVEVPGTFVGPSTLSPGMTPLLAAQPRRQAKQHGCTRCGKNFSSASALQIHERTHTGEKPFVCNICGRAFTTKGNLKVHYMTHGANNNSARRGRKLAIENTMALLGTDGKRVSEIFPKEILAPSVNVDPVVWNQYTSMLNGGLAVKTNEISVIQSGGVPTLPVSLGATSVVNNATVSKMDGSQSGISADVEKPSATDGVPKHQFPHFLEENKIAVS
Technique: universal PBM
Form: double-stranded DNA, one strand shown
Sample: in vitro
Tested at: 600 nM
Setting: 8-mer, flanks averaged, mean of replicates
Direction: higher = stronger binding
`CCTAGCGC` has an E-score of -0.259.
For `AGCGATCC`, the E-score was -0.167.
With `ACCAAAAC` the E-score was 0.163.
With `CAAGATGC` the E-score was 0.0558.
`CTATCAAG` gave an E-score of 0.0568.
With `ATTCTGTA` the E-score was 0.257.
`ATCCCGCG` gave an E-score of -0.139.
For `ATTTCTTG`, the E-score was 0.239.
`CAAACTCA` has an E-score of 0.0489.
`CGAGGCCC` has an E-score of -0.308.
`CTCACTCA` has an E-score of -0.0328.
`TCCAAGAA` gave an E-score of 0.0256.
For `AAGTATGC`, the E-score was 0.123.
The E-score of `GTGGTAAA` is reported as 0.0573.
For `TCTTGGCA`, the E-score was 0.0344.
The E-score of `CTCAAAGC` is reported as 0.0424.
`ACACCGCC` gave an E-score of -0.205.
For `AACTACCT`, the E-score was 0.0461.
For `AGAATGCG`, the E-score was -0.057.
For `GCGGAACC`, the E-score was -0.206.
With `ACCAAATA` the E-score was 0.278.
The E-score of `GGATTCAA` is reported as 0.0316.
`AACCCACG` gave an E-score of -0.163.

Sample 2
Target: RNA binding protein fox-1 homolog 2, RRM domain, GST-SBP tag (RBFOX2, Homo sapiens, UniProt O43251-10, residues 100-194)
Technique: RNA Bind-n-Seq
Form: RNA
Sample: in vitro
Tested at: 365 nM
Setting: natural RNA segment, single round, ends assumed
Baseline: no-protein control
Direction: higher = stronger binding
All sequences stand within: GGGAGUUCUACAGUCCGACGAUC … UGGAAUUCUCGGGUGCCAA
Target sequence (chain): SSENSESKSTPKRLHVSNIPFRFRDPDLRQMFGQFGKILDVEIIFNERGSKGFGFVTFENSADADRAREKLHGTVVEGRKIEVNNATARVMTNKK
`GAGCGGCUCCUGAGGAGAGCCGCCAAGGCUGCUCGCCUUCUCCGUGGCUUCCGCAGCUACCGUCUGCACGGUGAGAGGGCACGGGCACACGGUUCGGGCUGGCGUGCAGC`: “RBNS enrichment (R)” 0.552.
`CAAUGCAUUGGUGCAUAGGAGUUACUAGGGCUACUUCUGGAAGCCAAAAUAGAAUAGCAUCUCCAUGUGCAUUAAAAACUUCGCCAGCACUGCCUUUUGCCAGCAUUCUA` — result for “RBNS enrichment (R)”: 0.475.
Under “RBNS enrichment (R)”, `UGAGAUGGGGGCCUUGCAGCCCAGCACCCCCUCACUGCCAGCAGGGCACCAGGAGACAGGGUCCAGGAAUCCAGGUAUGCCUGUACUUGCUUGAGCAACGACUGAGGGCU` is recorded as 0.727.
For `GCAAUCAGAAGAGGAUGUGAGCCAGUUUGAUGCACGAUUCACACGGCAGACGCCGGUAGAUAGUCCAGAUGACACAGCCCUCAGUGAGAGUGCCAACCAAGCCUUCCUGG`, “RBNS enrichment (R)” read 1.05.
`UAGAAUGUCAUUUUGCCCUCAACCUUGGUAUUUCUCCUGGGGCCCUUUUAGUCUUGUGCUGACUUUCUCCUGUCCUCUUCCAGUUUAGAAUAAGACAGGGGAGAAAAAGG`: “RBNS enrichment (R)” 0.618.
For `AGCAUUGCCCUGCCUGUCUGAAAGGACAGUUUACCUAAUGGUGCCAGCCUCCUUUUGCUUUGGCAAGCUGGAUUUCUCAGAGCCAGCAUGUUGUUUCCAUAACUACUUUG`, “RBNS enrichment (R)” read 1.47.
For `CAGCAGCUAAGAAGACAGACAGUAGAGAAUGUGAGAGGAUCUCAUGGUUCUGAUGAUGAUUAUCCAACAAACAUCUGGCCCUCUCUACAUCUCUUCCCUCCAUCUCCUUG`, “RBNS enrichment (R)” read 0.331.
`CUCAUCUCUCCCAGCAUCCAUAGGAACACACUAACAUUGGGAUGGCAGGCACAUCCUGGUACUGGCACAGACUGAAGAGUCUGUGUUUCUGUACCACUUGAGGUAUAUGU`: “RBNS enrichment (R)” 0.6.
`UAUAAUGUUUCAACAAACAGAAGGUAGACAACAGGUUGUUGGUGGACAUGCUUGGUGCUUUUGGUAUGCUGCAAACACAAAGUGGUGGAACAAGGGUCACUGGACCCUUG`: “RBNS enrichment (R)” 1.01.
`AAUGGUGGUAAAGAGCAUGUUUUGAAAUGCUGUGGAAACCAUCUAUGCUGACAGUCUUGCAGCAUGGGAACAAAGACAUCAUAUUUUGCUUCAAAUUCUCUUUCAGUAGU`: “RBNS enrichment (R)” 1.49.
`UGAAAGUGAACUGCUGUUUGCCUGAUUGGUAAACCAACACACUACAAUUGAUAUCAAAAGGUUUCUCCUGUAAUAUUUUAUCCCUGGACUUGUCAAGUGAAUUCUUUGCA`: “RBNS enrichment (R)” 4.41.
`ACGCUAAGAAGGAAUUACGCGAAUCGGCUCAAAAGUUAUGGUGGCCAAGAAGUGAUACAGGGUGUCAUAUGCAAAUUAGCAAACAGGAAAGGCGGCAAUAUUCAAACCAG` — result for “RBNS enrichment (R)”: 1.04.

Sample 3
Target: Max-binding protein MNT, bHLH-zipper, MAX partner unstated (MNT, Homo sapiens, UniProt Q99583, residues 220-300)
Technique: protein-binding microarray
Form: double-stranded DNA, one strand shown
Sample: in vitro
Tested at: not given
Setting: k-mer, scored over probes, only values ≥0.25
Direction: higher = stronger binding
Construct (chain): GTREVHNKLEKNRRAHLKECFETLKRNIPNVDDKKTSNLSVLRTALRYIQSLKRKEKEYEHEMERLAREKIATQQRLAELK
`ACGTGCCC` has an E-score of 0.447.
`ACCACGTC` gave an E-score of 0.256.
`AACACGTT` gave an E-score of 0.418.
With `AAACACAT` the E-score was 0.311.
For `CGTGGTTA`, the E-score was 0.318.
The E-score of `CACCCCAA` is reported as 0.317.
`CACGTGCG` gave an E-score of 0.495.
The E-score of `CATGACAA` is reported as 0.298.
`CAGCGCAG` has an E-score of 0.259.
With `AGGACATG` the E-score was 0.251.
The E-score of `GGAGGGGA` is reported as 0.288.
`ACAGCGTG` has an E-score of 0.427.
With `ACGCGTGC` the E-score was 0.446.

Sample 4
Target: CCNE1, cyclin fold, Cln2 fusion (human)
Technique: yeast growth competition, sequencing
Sample: yeast
Setting: strong parent motif
Baseline: not given
Direction: higher = stronger binding
Parent: GMNC docking peptide (human); KNAKRNLSSEFAN
Under “normalised enrichment score”, `KNANRNLSSEFAN [K4N]` is recorded as -0.00859.
For `KNAKRTLSSEFAN [N6T]`, “normalised enrichment score” read 0.0726.
`KNAKRNLSSYFAN [E10Y]`: “normalised enrichment score” 0.397.
`KNAKRNTSSEFAN [L7T]` — result for “normalised enrichment score”: 0.157.
`KNAKRNLSSSFAN [E10S]`: “normalised enrichment score” 0.35.
For `KNAKRNLSSEFHN [A12H]`, “normalised enrichment score” read 0.62.
`KNAKRNLSSDFAN [E10D]` — result for “normalised enrichment score”: 0.545.
`KNMKRNLSSEFAN [A3M]`: “normalised enrichment score” 0.482.
For `KNAKRNLSFEFAN [S9F]`, “normalised enrichment score” read 2.31.
Under “normalised enrichment score”, `KNAKRNLISEFAN [S8I]` is recorded as 2.77.
For `KNADRNLSSEFAN [K4D]`, “normalised enrichment score” read 0.146.
Under “normalised enrichment score”, `KNKKRNLSSEFAN [A3K]` is recorded as 0.324.
`KNAKRNLSSVFAN [E10V]` — result for “normalised enrichment score”: 0.772.
Under “normalised enrichment score”, `KNAQRNLSSEFAN [K4Q]` is recorded as 0.417.
For `KNAKRNLSSKFAN [E10K]`, “normalised enrichment score” read -0.18.

Sample 5
Target: Interferon regulatory factor 5, full length, phosphomimetic (IRF5, Homo sapiens, UniProt Q13568-2, residues 1-514, K96S/S451D/S453D/S456D/S462D)
Technique: protein-binding microarray
Form: double-stranded DNA, one strand shown
Sample: in vitro
Tested at: 250 nM
Setting: 60-bp whole probe
Added: salmon DNA 0.4 mg/ml
Baseline: random background probes
Direction: higher = stronger binding
All sequences stand within: GCCTAGCAC … GTCTTGATTCGCTTGACGCTGCTG
The log fluorescence of `TCAGTTACCCACCTCAGACTGTGCTAG` is reported as -0.0146 z-score.
The log fluorescence of `GACGGTCTGGACACTGGGGACGTGCTA` is reported as -0.59 z-score.
The log fluorescence of `GGCAAAAACATGAACAGACAGTGCTAG` is reported as -0.269 z-score.
For `TCAGTGTTCTTTTCTGTTACTGTGCTA`, the log fluorescence was 1.47 z-score.
`TCATCTTTCCCTGCCCCATGGTGCTAG` has a log fluorescence of 0.959 z-score.
The log fluorescence of `GACTGACTGGGTTTCGGGACGTGCTAG` is reported as 2.38 z-score.
The log fluorescence of `TTAGGACAGGGACTGGGTTAGTGCTAG` is reported as -0.402 z-score.
`GACGGACTGCTACGGCTGACGTGCTAG` gave a log fluorescence of -0.345 z-score.
`TTCGGTCTCGGACTGGGTTAGTGCTAG` gave a log fluorescence of 0.494 z-score.
For `TTAGGTAACCTACTGCTTTAGTGCTAG`, the log fluorescence was 0.00879 z-score.
With `TCAAGTTTGTATATATTACTGTGCTAG` the log fluorescence was 0.522 z-score.
`ATAATTTTTCTAGTGGTTGCGTGCTAG` has a log fluorescence of 1.02 z-score.
The log fluorescence of `GGGTCTTGCAGTATGGAAAGGTGCTAG` is reported as -0.269 z-score.
`TCCGTATGGATGGCCAATTGGTGCTAG` gave a log fluorescence of -0.64 z-score.
For `CCACTTTCCATTTCTGTTTTTGTGCTA`, the log fluorescence was 4.24 z-score.
For `TCAAGCCTAAGGTTTAGGACTGTGCTA`, the log fluorescence was -0.426 z-score.
For `TCATGTTGCAAATATTGCACTGTGCTA`, the log fluorescence was 0.0088 z-score.
`GACGGTTTCGGTATCGGGATGTGCTAG` has a log fluorescence of 10.2 z-score.
`GACTGTATCGGGTTTCGGGACGTGCTA` has a log fluorescence of 4.35 z-score.
The log fluorescence of `TTCTAAACCATTTTGGTTTTGTGCTAG` is reported as 0.748 z-score.
The log fluorescence of `GATTGGTTGAACATGAACTTGTGCTAG` is reported as 0.193 z-score.
With `GACGGTATCGACTTTCGGGAGGTGCTA` the log fluorescence was 6.29 z-score.
For `TCAACTTTCTATGTCTGACTGTGCTAG`, the log fluorescence was 2.95 z-score.
`CTTTCTTTATGCACTCTCTACGTGCTA` gave a log fluorescence of 1.59 z-score.

For quick reference, copied from above (sample 5):
For `TCAACTTTCTATGTCTGACTGTGCTAG`, the log fluorescence was 2.95 z-score.
`GACTGTATCGGGTTTCGGGACGTGCTA` has a log fluorescence of 4.35 z-score.
The log fluorescence of `GACGGTCTGGACACTGGGGACGTGCTA` is reported as -0.59 z-score.
For `TTAGGTAACCTACTGCTTTAGTGCTAG`, the log fluorescence was 0.00879 z-score.
The log fluorescence of `GGCAAAAACATGAACAGACAGTGCTAG` is reported as -0.269 z-score.
`TTCGGTCTCGGACTGGGTTAGTGCTAG` gave a log fluorescence of 0.494 z-score.
`GACGGACTGCTACGGCTGACGTGCTAG` gave a log fluorescence of -0.345 z-score.
The log fluorescence of `TTAGGACAGGGACTGGGTTAGTGCTAG` is reported as -0.402 z-score.
The log fluorescence of `TTCTAAACCATTTTGGTTTTGTGCTAG` is reported as 0.748 z-score.
`TCATCTTTCCCTGCCCCATGGTGCTAG` has a log fluorescence of 0.959 z-score.
The log fluorescence of `GGGTCTTGCAGTATGGAAAGGTGCTAG` is reported as -0.269 z-score.
The log fluorescence of `GACTGACTGGGTTTCGGGACGTGCTAG` is reported as 2.38 z-score.
For `TCAGTGTTCTTTTCTGTTACTGTGCTA`, the log fluorescence was 1.47 z-score.
